Published values gathered from unrelated publications.
Numbered parts are unrelated; each lists some results of a single study.

Set 1 — technique: protein-binding microarray; molecule type: double-stranded DNA, one strand shown; matrix: in vitro; tested at: 250 nM; setting: 60-bp whole probe; together with: salmon DNA 0.4 mg/ml; reference: random background probes; reading: higher = stronger binding; shared flanks, not repeated: GCCTAGCAC … GTCTTGATTCGCTTGACGCTGCTG
Target: Interferon regulatory factor 5, full length, phosphomimetic (IRF5, Homo sapiens, UniProt Q13568-2, residues 1-514, K96S/S451D/S453D/S456D/S462D)
Oligonucleotide | log fluorescence
GACGATCTCAGCTTCGAGACGTGCTAG | -0.149 z-score
TCAAGGTTCTCTTTTATACTGTGCTAG | 0.0482 z-score
TAGGCTCTGTGCTTTCCTGATGTGCTA | -0.637 z-score
TCGCCTTTTTTGTTGTTTTTGTGCTAG | 1.53 z-score
GGTTTTCTAATGTTTTTTAAAGTGCTA | 1.32 z-score

Set 2 — technique: protein binding microarray; molecule type: double-stranded DNA, one strand shown; matrix: in vitro; tested at: not given; reference: not given; reading: higher = stronger binding
Target: Histone acetyltransferase KAT6A, both winged helices, GST fusion (KAT6A, Homo sapiens, UniProt Q92794, residues 1-181)
Setting: 8-mer, flanks averaged, mean of 2 arrays, mostly near background
Residues (chain): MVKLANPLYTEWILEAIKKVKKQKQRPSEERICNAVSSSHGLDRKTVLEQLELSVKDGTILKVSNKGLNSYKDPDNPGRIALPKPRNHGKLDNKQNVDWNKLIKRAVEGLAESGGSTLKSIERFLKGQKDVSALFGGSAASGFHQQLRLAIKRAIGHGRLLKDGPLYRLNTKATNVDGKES
Oligonucleotide | E-score
AGGATTTG | -0.239
TATTGTAA | 0.00746
TCGAGGAA | -0.139
AGTATAAA | 0.0743

Set 3 — technique: universal PBM; molecule type: double-stranded DNA, one strand shown; matrix: in vitro; tested at: 600 nM; reading: higher = stronger binding
Target: Sal-like protein 4, full length isoform A (SALL4, Homo sapiens, UniProt Q9UJQ4, residues 1-1053)
Sequence of UniProt Q9UJQ4 (whole entry, looked up): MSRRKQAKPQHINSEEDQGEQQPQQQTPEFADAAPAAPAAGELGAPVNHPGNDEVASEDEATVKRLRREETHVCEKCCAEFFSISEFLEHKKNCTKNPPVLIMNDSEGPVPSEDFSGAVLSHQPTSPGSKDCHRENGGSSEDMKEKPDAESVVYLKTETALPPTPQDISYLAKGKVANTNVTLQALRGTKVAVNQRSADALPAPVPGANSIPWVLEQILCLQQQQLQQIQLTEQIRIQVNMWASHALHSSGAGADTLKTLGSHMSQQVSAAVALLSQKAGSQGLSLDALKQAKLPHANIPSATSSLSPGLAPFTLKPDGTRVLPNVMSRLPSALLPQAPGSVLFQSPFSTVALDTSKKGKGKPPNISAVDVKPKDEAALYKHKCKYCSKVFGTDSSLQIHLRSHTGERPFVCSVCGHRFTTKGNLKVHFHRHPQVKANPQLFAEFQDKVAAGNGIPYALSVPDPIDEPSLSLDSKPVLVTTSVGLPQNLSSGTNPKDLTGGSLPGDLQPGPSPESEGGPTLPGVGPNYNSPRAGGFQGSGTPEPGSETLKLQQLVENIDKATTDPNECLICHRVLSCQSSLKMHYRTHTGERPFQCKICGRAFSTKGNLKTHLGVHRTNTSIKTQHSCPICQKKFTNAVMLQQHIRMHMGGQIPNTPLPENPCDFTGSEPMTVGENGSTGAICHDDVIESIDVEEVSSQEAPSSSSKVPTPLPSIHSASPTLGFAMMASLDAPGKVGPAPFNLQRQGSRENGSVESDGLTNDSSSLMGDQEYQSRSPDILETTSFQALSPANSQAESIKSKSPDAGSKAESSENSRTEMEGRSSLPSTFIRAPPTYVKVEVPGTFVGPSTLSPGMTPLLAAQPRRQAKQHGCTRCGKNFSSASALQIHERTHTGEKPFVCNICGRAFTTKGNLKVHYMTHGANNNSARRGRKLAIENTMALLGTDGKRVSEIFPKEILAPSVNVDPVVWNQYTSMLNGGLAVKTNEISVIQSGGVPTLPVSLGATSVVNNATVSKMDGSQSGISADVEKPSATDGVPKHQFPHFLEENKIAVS
Setting: 8-mer, flanks averaged, mean of replicates
Oligonucleotide | E-score
CATTGTAA | 0.219
AAGCGCGA | -0.141
GAAGGGGA | -0.213
GACTGCAA | -0.0832
AGATTGCC | -0.175

Further values, each from its own experiment
Substance | target | test | system | setting | how to read | quantity | value
PhoQ, residues 284 288 289 292 302 303 NLSRDF | PhoP, residues 12 14 15 18 19 HLGGL (Escherichia coli, UniProt P23836) | Sort-seq, item: YFP reporter | E. coli | PhoQ-PhoP variant library, together with: 10 µM Mg2+ | reference: high Mg2+ state, higher = stronger signaling | fold induction | 2.31

Some of these lines once more (set 1):
Oligonucleotide | log fluorescence
TCAAGGTTCTCTTTTATACTGTGCTAG | 0.0482 z-score
